Measurements collected from several papers.
Every numbered part comes from another study and shows a few of its results, in no order.
Sequence of UniProt Q9P0L2 (whole entry, looked up): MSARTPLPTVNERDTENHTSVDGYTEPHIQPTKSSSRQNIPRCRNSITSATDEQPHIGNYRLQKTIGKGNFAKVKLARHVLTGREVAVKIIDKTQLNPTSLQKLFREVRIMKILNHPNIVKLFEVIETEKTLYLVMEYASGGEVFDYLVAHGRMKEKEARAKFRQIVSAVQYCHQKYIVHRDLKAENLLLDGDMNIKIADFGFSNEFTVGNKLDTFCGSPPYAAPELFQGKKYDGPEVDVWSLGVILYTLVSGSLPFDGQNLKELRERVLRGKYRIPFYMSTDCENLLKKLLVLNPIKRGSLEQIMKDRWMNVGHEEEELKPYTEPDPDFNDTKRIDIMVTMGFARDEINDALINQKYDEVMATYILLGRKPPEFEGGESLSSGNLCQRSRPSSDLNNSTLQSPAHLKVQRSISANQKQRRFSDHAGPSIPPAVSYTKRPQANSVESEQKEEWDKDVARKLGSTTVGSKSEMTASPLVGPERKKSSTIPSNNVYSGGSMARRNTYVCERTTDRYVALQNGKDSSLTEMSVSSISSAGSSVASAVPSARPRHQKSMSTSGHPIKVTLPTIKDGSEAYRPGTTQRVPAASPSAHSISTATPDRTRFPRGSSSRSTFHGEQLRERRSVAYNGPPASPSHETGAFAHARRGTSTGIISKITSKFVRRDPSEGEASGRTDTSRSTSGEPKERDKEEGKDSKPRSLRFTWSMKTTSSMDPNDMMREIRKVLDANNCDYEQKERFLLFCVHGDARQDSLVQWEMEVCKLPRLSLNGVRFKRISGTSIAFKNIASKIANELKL
Sequence of UniProt P11802 (whole entry, looked up): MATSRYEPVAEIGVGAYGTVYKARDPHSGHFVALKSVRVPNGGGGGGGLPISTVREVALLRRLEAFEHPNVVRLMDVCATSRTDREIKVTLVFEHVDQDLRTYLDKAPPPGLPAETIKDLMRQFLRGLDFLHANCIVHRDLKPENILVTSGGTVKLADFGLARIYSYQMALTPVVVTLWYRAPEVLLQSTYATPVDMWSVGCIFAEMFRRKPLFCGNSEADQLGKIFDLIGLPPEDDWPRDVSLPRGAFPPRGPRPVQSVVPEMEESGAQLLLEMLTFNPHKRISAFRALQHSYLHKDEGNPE
Sequence of UniProt Q96PY6 (whole entry, looked up): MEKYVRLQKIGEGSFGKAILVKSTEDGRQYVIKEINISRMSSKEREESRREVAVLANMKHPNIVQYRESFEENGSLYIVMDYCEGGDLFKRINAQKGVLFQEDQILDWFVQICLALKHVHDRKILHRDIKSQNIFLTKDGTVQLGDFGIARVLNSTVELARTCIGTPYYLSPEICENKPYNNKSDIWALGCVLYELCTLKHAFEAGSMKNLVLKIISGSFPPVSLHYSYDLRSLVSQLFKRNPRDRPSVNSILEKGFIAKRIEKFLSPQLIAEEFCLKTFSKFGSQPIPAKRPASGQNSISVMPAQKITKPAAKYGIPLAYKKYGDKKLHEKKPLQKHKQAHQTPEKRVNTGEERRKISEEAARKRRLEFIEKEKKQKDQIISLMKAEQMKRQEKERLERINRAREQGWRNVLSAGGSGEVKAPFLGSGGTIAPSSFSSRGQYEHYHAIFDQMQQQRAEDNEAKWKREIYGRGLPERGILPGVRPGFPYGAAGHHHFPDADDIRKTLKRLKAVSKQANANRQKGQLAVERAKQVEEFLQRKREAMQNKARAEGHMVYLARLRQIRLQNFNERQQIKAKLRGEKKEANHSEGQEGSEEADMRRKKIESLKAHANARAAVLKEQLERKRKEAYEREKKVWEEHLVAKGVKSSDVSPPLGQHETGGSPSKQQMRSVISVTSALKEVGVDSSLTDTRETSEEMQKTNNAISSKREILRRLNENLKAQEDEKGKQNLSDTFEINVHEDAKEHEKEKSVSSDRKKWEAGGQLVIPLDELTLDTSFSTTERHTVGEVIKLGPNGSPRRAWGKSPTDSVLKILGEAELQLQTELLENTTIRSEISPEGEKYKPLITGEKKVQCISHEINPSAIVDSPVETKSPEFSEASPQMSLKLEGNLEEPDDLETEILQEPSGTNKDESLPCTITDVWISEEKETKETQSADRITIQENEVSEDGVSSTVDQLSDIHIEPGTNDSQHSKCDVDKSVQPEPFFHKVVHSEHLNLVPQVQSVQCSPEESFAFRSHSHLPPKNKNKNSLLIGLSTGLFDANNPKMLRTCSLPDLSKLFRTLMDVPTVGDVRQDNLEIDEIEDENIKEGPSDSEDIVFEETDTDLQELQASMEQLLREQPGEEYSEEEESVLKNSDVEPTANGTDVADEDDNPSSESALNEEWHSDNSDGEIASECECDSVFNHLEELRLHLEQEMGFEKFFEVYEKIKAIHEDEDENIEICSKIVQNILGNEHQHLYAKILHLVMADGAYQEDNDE
Sequence of UniProt Q05655 (whole entry, looked up): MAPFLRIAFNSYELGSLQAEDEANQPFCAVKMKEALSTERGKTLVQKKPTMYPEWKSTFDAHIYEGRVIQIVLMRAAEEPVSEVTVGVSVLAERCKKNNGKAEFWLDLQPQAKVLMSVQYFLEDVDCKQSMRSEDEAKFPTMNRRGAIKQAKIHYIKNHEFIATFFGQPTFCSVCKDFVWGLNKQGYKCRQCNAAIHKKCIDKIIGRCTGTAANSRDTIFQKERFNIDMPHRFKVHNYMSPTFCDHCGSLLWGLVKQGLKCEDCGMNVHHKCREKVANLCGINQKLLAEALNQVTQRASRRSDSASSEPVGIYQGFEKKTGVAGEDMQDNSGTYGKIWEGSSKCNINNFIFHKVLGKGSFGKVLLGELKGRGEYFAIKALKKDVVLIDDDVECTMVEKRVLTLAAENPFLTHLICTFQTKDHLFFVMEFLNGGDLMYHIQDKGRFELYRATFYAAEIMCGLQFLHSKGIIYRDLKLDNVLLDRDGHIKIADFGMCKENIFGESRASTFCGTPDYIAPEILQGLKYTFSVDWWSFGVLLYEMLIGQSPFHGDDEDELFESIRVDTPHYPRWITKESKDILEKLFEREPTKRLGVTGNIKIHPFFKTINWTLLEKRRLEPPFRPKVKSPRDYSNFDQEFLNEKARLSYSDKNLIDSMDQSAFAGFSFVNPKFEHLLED
Sequence of UniProt O43318 (whole entry, looked up): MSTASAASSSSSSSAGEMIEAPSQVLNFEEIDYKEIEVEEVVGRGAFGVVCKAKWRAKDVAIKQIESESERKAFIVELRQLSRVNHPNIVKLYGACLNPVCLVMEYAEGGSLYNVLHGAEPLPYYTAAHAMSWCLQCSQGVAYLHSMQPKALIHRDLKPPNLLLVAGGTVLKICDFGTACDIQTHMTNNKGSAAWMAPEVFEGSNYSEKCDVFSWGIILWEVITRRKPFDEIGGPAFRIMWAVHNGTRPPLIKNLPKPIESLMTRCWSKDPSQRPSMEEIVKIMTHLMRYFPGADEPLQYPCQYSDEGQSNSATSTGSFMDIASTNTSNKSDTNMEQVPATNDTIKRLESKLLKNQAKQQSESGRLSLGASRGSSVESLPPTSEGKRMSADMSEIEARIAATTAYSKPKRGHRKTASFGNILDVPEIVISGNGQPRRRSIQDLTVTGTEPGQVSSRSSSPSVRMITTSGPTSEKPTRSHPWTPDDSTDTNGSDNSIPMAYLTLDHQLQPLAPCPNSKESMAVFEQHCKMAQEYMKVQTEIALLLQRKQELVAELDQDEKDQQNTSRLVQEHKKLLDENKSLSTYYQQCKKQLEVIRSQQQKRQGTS

Sample 1 — read-out: cell-free assay; method: competition with immobilised ligand; concentration: 1 µM
Compound: COc1ccc2c(c1)O[C@@H](c1ccc(OC)c(OC)c1)C[C@H]2NC(=O)C1(c2ccc3c(c2)OC(F)(F)O3)CC1
target	remaining binding [%]
Protein kinase C delta type (PRKCD, Homo sapiens, UniProt Q05655)	100
Serine/threonine-protein kinase Nek1 (NEK1, Homo sapiens, UniProt Q96PY6)	100
Mitogen-activated protein kinase kinase kinase 7 (MAP3K7, Homo sapiens, UniProt O43318)	100
Cyclin-dependent kinase 4, with cyclin D3 (CDK4, Homo sapiens, UniProt P11802)	95
Serine/threonine-protein kinase MARK1 (MARK1, Homo sapiens, UniProt Q9P0L2)	100

Sample 2 — read-out: enzyme activity; action: inhibitor; concentration: 0.5 µM; baseline: control
Target: Muscle, skeletal receptor tyrosine-protein kinase (MUSK, Homo sapiens, UniProt O15146)
Sequence of UniProt O15146 (whole entry, looked up): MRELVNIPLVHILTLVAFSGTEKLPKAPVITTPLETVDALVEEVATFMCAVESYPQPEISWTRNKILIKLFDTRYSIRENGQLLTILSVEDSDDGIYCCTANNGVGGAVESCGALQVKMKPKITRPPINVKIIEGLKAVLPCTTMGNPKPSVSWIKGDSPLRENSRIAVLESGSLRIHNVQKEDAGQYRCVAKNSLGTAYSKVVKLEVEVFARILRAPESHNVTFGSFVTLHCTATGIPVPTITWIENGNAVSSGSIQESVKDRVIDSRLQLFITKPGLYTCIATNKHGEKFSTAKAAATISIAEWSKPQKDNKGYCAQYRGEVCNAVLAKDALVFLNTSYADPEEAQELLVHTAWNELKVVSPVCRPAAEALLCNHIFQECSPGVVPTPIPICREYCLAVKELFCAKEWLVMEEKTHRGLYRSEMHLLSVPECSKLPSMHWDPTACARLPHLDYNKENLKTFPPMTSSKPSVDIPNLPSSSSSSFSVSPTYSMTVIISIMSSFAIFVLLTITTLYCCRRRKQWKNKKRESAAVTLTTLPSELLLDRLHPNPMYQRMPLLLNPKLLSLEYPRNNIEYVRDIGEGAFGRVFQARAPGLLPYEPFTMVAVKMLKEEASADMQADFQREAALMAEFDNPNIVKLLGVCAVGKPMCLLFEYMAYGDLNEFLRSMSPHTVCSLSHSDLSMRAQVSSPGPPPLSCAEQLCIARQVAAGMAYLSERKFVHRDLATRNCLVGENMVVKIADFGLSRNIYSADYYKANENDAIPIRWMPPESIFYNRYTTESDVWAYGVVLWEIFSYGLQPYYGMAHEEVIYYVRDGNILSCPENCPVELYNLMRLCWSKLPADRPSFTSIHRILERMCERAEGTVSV
Structure (SMILES)	remaining activity
Cn1sc(=O)n(Cc2ccccc2)c1=O	103%
Nc1[nH]nc2nc3ccccc3nc12	82.6%
Cc1ccc(Nc2nccc(N(C)c3ccc4c(C)n(C)nc4c3)n2)cc1S(N)(=O)=O	95.1%
CN(C)c1ccc(C=C2C(=O)Nc3ccccc32)cc1	96.4%
COc1ccc(OC)c2c(=S)c3ccccc3[nH]c12	87.3%
CCOC(=O)c1c(C)[nH]c(/C=C2\C(=O)Nc3ccccc32)c1C	88.7%
NCCNc1ncc(C(N)=O)c(Nc2cccc(C(F)(F)F)c2)n1	88.6%
O=C1NC(=O)C(c2cn(CCCn3ccnc3)c3ccccc23)=C1Nc1ccccc1	51.6%
Nc1ccc2ncnc(NCCc3ccc(Oc4ccccc4)cc3)c2c1	102%
C#Cc1cccc(Nc2ncnc3cc(OCCOC)c(OCCOC)cc23)c1	94.6%
COc1cc2ncnc(Nc3ccc(Oc4ccccc4)cc3)c2cc1OC	89.8%
O=c1c2ccccc2[nH]c(=S)n1CCN1CCC(=C(c2ccc(F)cc2)c2ccc(F)cc2)CC1	93.6%
COc1ccc(CNC(=O)Nc2ncc([N+](=O)[O-])s2)cc1	115%
CNC(=O)c1cc(Oc2ccc(NC(=O)Nc3ccc(Cl)c(C(F)(F)F)c3)cc2)ccn1	101%
Cc1ccc(NC(=O)c2ccc(CN3CCN(C)CC3)cc2)cc1Nc1nc(-c2cccnc2)cs1	99%
CC(C)[C@H](CO)Nc1nc(Nc2cc(N)cc(Cl)c2)c2ncn(C(C)C)c2n1	46%

Sample 3 — organism: Sarcocystis neurona; read-out: parasite growth; concentration: 10 µM; time: 96 h; setting: first screen; baseline: untreated
Compound	log2 fold change
CCOC(=O)[C@H](CCc1ccccc1)N[C@@H](C)C(=O)N1Cc2ccccc2C[C@H]1C(=O)O	0.3
CCN(CC)CCOc1ccc(C(=C(Cl)c2ccccc2)c2ccccc2)cc1	-0.22
NC(=O)c1cnccn1	0.33
CC(=O)NCCCCCCNC(C)=O	-0.0126
O=c1n(CCCN2CCN(c3cccc(Cl)c3)CC2)nc2ccccn12	0.0157
CC(=O)N1CCN(c2ccc(OCC3COC(Cn4ccnc4)(c4ccc(Cl)cc4Cl)O3)cc2)CC1 (centres unmarked)	-0.33
O=C1CC[C@@H](C(=O)N2CSC[C@H]2C(=O)O)N1	0.12
Cc1nccn1CC1CCc2c(c3ccccc3n2C)C1=O (centres unmarked)	0.28
CC[C@H]1OC(=O)[C@H](C)[C@@H](O[C@H]2C[C@@](C)(OC)[C@@H](O)[C@H](C)O2)[C@H](C)[C@@H](O[C@@H]2O[C@H](C)C[C@H](N(C)C)[C@H]2O)[C@](C)(OC)C[C@@H](C)C(=O)[C@H](C)[C@@H](O)[C@]1(C)O	0.0135

Sample 4 — host: mouse; matrix: microsomes or S9; concentration: 2 µM; time: 0.5 h
SMILES	remaining compound
Oc1ccc(-c2nc(-c3ccc(F)c(F)c3)no2)cc1Cl	54.9%
Cn1cnc2c(sc3nc4c(cc32)COC(C)(C)C4)c1=O	72.6%
O=C(c1cccs1)N1c2nc(C3CCCCC3)nn2C2(CCCCC2)[C@@H]2CCCC[C@@H]21	0.686%
Oc1ccc([C@H]2c3c(O)cc(O)cc3[C@@H]3c4c(cc(O)c5c4[C@@H]2[C@@H](c2ccc(O)cc2)[C@@H]5c2cc(O)cc(O)c2)O[C@@H]3c2ccc(O)cc2)cc1	65.3%
COc1cc(=O)n(C)cc1C(=O)Nc1nc(-c2ccccn2)cs1	18.1%

Some of these lines once more (sample 2):
Structure (SMILES)	remaining activity
Cc1ccc(NC(=O)c2ccc(CN3CCN(C)CC3)cc2)cc1Nc1nc(-c2cccnc2)cs1	99%
NCCNc1ncc(C(N)=O)c(Nc2cccc(C(F)(F)F)c2)n1	88.6%
Cc1ccc(Nc2nccc(N(C)c3ccc4c(C)n(C)nc4c3)n2)cc1S(N)(=O)=O	95.1%
COc1ccc(CNC(=O)Nc2ncc([N+](=O)[O-])s2)cc1	115%
Nc1ccc2ncnc(NCCc3ccc(Oc4ccccc4)cc3)c2c1	102%
